Measurements of several laboratories.
Numbered parts are unrelated; each lists some results of a single study. Changes are numbered by the printed parent chain.
UniProt P33981, sequence (whole entry, looked up): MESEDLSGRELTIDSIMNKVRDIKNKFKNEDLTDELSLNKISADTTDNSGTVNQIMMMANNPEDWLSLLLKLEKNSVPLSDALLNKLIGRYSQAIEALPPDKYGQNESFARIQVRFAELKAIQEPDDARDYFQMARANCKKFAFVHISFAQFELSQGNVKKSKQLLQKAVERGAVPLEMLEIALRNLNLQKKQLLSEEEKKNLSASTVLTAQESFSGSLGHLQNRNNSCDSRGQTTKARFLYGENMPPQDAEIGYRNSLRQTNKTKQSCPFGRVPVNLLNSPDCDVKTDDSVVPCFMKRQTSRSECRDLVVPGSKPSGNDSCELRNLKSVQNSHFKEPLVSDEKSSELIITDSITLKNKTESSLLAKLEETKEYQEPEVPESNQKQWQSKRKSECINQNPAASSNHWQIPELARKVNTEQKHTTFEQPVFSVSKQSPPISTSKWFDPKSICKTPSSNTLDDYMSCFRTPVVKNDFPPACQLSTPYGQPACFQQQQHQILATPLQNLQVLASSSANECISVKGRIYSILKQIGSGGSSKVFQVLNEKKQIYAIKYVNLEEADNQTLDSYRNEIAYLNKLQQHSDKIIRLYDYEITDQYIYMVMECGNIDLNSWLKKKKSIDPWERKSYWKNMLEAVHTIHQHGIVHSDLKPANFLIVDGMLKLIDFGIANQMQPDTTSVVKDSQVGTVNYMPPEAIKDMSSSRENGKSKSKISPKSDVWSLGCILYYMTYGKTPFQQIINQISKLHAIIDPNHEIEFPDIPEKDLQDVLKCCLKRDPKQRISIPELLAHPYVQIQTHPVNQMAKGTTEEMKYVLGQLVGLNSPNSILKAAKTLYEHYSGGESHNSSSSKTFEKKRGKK
UniProt Q9UF33, sequence (whole entry, looked up): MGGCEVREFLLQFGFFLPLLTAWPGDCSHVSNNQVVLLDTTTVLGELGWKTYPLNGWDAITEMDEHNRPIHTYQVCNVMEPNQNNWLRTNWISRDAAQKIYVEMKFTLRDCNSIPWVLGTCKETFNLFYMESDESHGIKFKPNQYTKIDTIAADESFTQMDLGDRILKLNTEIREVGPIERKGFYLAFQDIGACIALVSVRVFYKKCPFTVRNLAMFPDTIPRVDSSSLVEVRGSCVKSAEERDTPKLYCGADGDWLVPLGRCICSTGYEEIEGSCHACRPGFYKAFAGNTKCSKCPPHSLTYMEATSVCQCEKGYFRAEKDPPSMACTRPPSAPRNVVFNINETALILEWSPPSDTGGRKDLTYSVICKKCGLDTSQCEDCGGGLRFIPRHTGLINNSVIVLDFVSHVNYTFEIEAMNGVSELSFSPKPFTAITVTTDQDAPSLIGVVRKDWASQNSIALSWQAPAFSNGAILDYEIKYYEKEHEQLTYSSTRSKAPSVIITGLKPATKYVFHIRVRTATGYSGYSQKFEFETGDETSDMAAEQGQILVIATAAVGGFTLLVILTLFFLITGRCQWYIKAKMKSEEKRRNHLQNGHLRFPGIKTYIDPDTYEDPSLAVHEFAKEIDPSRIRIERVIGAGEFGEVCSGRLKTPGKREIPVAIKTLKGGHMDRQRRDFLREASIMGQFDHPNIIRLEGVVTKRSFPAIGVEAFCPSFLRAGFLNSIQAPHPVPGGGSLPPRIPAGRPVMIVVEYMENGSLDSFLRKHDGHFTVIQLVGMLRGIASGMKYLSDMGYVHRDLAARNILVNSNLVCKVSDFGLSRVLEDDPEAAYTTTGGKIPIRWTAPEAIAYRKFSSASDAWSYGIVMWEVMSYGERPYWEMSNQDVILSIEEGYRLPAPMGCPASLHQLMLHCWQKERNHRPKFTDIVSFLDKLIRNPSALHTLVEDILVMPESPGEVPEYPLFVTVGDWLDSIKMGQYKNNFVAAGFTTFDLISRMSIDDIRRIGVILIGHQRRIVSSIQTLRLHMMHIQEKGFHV
UniProt P57058, sequence (whole entry, looked up): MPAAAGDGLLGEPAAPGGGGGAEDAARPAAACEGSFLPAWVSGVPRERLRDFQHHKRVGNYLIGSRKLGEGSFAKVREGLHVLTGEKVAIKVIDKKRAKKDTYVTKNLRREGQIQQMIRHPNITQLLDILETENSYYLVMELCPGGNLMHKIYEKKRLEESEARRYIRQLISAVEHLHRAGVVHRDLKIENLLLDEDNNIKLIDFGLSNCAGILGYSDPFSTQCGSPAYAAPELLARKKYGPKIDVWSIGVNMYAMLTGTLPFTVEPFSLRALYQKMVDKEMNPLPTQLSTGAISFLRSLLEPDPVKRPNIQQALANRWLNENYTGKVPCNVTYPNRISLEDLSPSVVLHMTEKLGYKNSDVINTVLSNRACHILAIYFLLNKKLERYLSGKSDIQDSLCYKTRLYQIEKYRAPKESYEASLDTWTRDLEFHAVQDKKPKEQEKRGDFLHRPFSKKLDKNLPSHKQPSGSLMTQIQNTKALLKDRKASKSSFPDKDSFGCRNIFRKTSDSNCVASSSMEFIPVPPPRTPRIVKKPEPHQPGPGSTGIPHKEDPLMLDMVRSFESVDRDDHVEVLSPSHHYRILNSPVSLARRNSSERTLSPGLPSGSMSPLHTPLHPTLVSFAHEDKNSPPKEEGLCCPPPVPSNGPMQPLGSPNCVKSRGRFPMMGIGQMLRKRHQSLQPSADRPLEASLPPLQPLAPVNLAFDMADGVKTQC
UniProt P49759, sequence (whole entry, looked up): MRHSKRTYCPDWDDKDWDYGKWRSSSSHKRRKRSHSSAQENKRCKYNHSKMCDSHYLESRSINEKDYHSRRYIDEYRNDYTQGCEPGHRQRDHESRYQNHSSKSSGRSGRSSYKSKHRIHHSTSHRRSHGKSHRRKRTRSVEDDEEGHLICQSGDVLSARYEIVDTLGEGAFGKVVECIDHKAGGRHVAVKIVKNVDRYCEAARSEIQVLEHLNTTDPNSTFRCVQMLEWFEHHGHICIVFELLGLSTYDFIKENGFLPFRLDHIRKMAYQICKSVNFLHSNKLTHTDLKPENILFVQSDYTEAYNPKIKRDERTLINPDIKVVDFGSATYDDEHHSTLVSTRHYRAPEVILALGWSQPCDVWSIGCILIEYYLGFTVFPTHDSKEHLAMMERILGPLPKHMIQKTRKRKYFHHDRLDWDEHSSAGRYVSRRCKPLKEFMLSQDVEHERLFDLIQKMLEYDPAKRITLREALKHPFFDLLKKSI
UniProt P51812, sequence (whole entry, looked up): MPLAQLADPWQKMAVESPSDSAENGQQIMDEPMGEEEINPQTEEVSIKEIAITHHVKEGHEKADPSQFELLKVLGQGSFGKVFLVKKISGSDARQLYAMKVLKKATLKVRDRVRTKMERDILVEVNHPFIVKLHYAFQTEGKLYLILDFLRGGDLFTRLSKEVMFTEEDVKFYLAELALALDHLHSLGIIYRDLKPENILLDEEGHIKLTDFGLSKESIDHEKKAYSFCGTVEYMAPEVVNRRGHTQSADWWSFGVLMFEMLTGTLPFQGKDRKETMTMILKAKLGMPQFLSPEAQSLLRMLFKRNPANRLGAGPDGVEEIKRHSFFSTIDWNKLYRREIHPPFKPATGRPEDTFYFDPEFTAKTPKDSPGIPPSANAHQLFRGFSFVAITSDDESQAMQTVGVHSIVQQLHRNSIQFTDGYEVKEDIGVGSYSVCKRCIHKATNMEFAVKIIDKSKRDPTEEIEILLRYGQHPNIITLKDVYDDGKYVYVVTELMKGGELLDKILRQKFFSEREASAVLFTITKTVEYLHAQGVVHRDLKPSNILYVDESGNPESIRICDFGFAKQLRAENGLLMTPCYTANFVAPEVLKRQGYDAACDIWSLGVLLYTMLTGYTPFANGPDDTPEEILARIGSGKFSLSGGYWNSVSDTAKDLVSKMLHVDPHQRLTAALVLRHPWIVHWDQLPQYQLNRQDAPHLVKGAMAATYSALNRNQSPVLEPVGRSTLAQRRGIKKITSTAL
UniProt P10721, sequence (whole entry, unmodified, looked up): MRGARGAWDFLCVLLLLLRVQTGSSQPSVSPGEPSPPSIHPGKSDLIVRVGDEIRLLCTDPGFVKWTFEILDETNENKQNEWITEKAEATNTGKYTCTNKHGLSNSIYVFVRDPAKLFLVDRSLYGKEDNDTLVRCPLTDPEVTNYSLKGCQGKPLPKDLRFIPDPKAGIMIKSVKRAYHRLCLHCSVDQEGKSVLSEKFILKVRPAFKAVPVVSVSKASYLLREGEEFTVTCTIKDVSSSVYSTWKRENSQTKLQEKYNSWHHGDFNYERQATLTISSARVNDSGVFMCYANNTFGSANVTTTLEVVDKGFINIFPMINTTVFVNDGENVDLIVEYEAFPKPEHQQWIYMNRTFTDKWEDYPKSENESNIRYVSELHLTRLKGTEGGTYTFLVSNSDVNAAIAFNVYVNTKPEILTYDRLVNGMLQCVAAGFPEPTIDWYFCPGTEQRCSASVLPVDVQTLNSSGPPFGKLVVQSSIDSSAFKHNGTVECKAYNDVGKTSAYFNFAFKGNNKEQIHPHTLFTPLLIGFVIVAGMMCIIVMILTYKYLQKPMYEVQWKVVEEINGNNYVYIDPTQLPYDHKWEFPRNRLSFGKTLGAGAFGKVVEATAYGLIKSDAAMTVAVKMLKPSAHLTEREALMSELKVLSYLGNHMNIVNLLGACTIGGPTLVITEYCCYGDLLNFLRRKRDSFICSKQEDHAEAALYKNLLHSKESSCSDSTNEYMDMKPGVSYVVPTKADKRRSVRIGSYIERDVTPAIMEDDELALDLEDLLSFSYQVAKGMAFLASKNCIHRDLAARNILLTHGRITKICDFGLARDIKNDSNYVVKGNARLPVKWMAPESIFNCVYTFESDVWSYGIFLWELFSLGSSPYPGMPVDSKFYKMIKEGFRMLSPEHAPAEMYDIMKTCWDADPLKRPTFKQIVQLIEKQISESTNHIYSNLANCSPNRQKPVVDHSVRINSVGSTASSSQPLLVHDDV

Series 1
SMILES: CNCc1ccccc1-c1csc([C@@H](C)Nc2nc(C)nc3cc(OC)c(OC)cc23)c1
Read-out: cell-free assay
Technique: competition with immobilised ligand
Tested at: 1 µM
Measurement: remaining binding
Mast/stem cell growth factor receptor Kit (KIT, Homo sapiens, UniProt P10721, D816V): 81%
Phosphatidylinositol 3-kinase catalytic subunit type 3 (PIK3C3, Homo sapiens, UniProt Q8NEB9): 100%
Hormonally up-regulated neu tumor-associated kinase (HUNK, Homo sapiens, UniProt P57058): 100%
Dual specificity protein kinase TTK (TTK, Homo sapiens, UniProt P33981): 97%
Phosphatidylinositol 4,5-bisphosphate 3-kinase catalytic subunit delta isoform (PIK3CD, Homo sapiens, UniProt O00329): 75%
Cyclin-dependent kinase 11B (CDK11B, Homo sapiens, UniProt P21127): 100%

Series 2
Target: Histone acetyltransferase KAT6A, winged helix 1, GST fusion (KAT6A, Homo sapiens, UniProt Q92794, residues 1-85)
Technique: protein binding microarray
Form: double-stranded DNA, one strand shown
Medium: in vitro
Tested at: not given
Notes: 8-mer, flanks averaged, mean of 2 arrays, mostly near background
Reference: not given
Direction: higher = stronger binding
Measurement: E-score
Residues (chain): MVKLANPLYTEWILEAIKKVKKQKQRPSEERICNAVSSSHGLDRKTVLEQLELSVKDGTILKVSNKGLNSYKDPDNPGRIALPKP
ACGCCTTG: 0.0847
TATCCCGA: 0.0469
GGCCGGGA: 0.326
CCTTGTGC: -0.104
CAAATGTC: -0.0534
AAATGAAC: -0.177
CTTTTACC: -0.124
AATGTAAG: -0.133

Series 3
Target: CEBPE, bZIP domain (human)
Technique: DHFR protein complementation
Medium: yeast
Notes: single substitutions, most at no-binding floor
Reference: wild-type JUN-FOS pair
Direction: higher = stronger binding
Measurement: binding fitness
Starting sequence: JUN, bZIP domain (human); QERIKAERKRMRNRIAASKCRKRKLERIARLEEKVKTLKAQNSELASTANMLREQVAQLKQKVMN; partner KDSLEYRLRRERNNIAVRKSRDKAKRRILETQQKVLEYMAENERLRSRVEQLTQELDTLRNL
A40Q: -0.919 natural log
Q55I: -1.47 natural log
R30G: -1.17 natural log
E33I: -1.33 natural log
V56H: -1.44 natural log
A57S: -1.27 natural log
K34R: -0.941 natural log
A57V: -1.23 natural log

Series 4
Compound: CN(C)S(=O)(=O)c1ccc2c(c1)/C(=C/c1cc3c([nH]1)CCCC3)C(=O)N2
Read-out: enzyme activity
Action: inhibitor
Tested at: 0.5 µM
Reference: control
Measurement: remaining activity
Vascular endothelial growth factor receptor 1 (FLT1, Homo sapiens, UniProt P17948): 84.9%
Ephrin type-A receptor 6 (EPHA6, Homo sapiens, UniProt Q9UF33): 61.9%
Ribosomal protein S6 kinase alpha-3 (RPS6KA3, Homo sapiens, UniProt P51812): 70.1%
Dual specificity protein kinase CLK1 (CLK1, Homo sapiens, UniProt P49759): 82.6%
Cyclin-dependent kinase 2, with cyclin E (CDK2, Homo sapiens, UniProt P24941): 85.5%
